Measured values pooled from the literature.
Numbered parts are unrelated; each lists some results of a single study. Positions count from the first letter of the parent shown.

Series 1 — technique: RNA Bind-n-Seq; molecule type: RNA; sample: in vitro; tested at: 200 nM; setting: whole 134-nt RNA, ends assumed; added: 150 mM LiCl; reference: input library; direction: higher = stronger binding; each molecule: 7-deaza-guanosine replaces G
Target: Fragile X messenger ribonucleoprotein 1, C-terminal low-complexity region (Fmr1, Mus musculus, UniProt P35922)
All sequences stand within: GGGAGUUCUACAGUCCGACGAUC … UGGAAUUCUCGGGUGUCAAGG
| Strand | log2 enrichment |
| --- | --- |
| CCUCAAGUCCUGUGCUACACAUCGUAUGUACCGAAUCGGGCGGGGCGGCGGGAAAGUAUUAUGUUACGCCGUUCGGAUCUGCACUUCCAG | -0.464 |
| UGUGCUACACAUCGUAUGUACCGAAUCGGGGAAAAAAAGGGAAAAAAAGGGGAAAAAAAGGGGAAAGUAUUAUGUUACGCCGUUCGGAUC | 0.956 |
| CUCAAGUCCUGUGCUACACAUCGUAUGUACCGAAUCGGGAGGGUUUGGGAGGGAAAGUAUUAUGUUACGCCGUUCGGAUCUGCACUUCCA | 0.15 |
| UUUUCUGCAUGGACCGUGCCCUAGAAUUUGCCCCUGCCUGCCAUCGCUUCAAAAUCCUCAAGGCAGAAUGUUUAGCAAUGCUGGGUCGUU | -0.171 |
| AGUCCUGUGCUACACAUCGUAUGUACCGAAUCGGGGAAAGGGGUGGGGAAAAAGGGGAAAGUAUUAUGUUACGCCGUUCGGAUCUGCACU | -0.27 |
| CUCAAGUCCUGUGCUACACAUCGUAUGUACCGAAUCGGGUUGGGUUGGGUUGGGAAAGUAUUAUGUUACGCCGUUCGGAUCUGCACUUCC | -0.12 |
| CUCAAGUCCUGUGCUACACAUCGUAUGUACCGAAUCGGGGCCGGGGCCGGCCGGAAAGUAUUAUGUUACGCCGUUCGGAUCUGCACUUCC | 0.299 |
| AGUCCUGUGCUACACAUCGUAUGUACCGAAUCGGGGUGGGGAAAAAAAGGGGUGGGGAAAGUAUUAUGUUACGCCGUUCGGAUCUGCACU | 0.0494 |
| GCAGGAAGUAAAAACAAAUGGAAAUGCUUCGGAUAGUGGCAGGGGUGGGGGUUGCUAAGGAAACGGUGGGAUGGGAGUGGGUAAAGAGUU | 1.42 |
| UAACUUUAGAUGAGGAUCUGAUGGAUAUGGCAGUGGACGUGGAUUUGGGGAUGGCUAUAAUGGGUAUGGAGGAGGACCUGGAGGUGGCAA | -0.0345 |
| CCUGUGCUACACAUCGUAUGUACCGAAUCGGGGAAAAAAAGGGGAAAAAAAGGGGAGGGGAAAGUAUUAUGUUACGCCGUUCGGAUCUGC | 1.15 |

Series 2 — target: CCNB2, cyclin fold, Cln2 fusion (human); technique: yeast growth competition, sequencing; sample: yeast; setting: weak parent motif; reference: not given; direction: higher = stronger binding
Parent: ANKRD17 docking peptide (human); PSVRRQLFVTVVK; partner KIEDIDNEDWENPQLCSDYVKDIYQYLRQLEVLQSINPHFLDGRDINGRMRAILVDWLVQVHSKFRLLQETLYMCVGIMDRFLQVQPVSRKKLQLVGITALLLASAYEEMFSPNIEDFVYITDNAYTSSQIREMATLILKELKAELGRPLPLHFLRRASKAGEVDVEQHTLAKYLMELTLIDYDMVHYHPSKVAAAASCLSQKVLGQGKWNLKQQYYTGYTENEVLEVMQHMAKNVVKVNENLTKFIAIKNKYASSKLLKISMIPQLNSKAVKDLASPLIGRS
| Variant | normalised enrichment score |
| --- | --- |
| S2A | 1.01 |
| T10A | 1.02 |
| V3A | 0.92 |
| V9A | 0.629 |
| V12A | 0.732 |
| R4A | 0.609 |
| F8L | 0.471 |

Series 3 — technique: DHFR PCA, deep sequencing; sample: yeast; added: (+)-ABA 710 µM; reference: wild-type fitted maximum; direction: higher = stronger binding
Target: ABI1, truncated, D143A, DHFR fusion (Arabidopsis thaliana)
Setting: methotrexate growth selection, single substitutions
Parent: PYL1, truncated, DHFR fusion (Arabidopsis thaliana); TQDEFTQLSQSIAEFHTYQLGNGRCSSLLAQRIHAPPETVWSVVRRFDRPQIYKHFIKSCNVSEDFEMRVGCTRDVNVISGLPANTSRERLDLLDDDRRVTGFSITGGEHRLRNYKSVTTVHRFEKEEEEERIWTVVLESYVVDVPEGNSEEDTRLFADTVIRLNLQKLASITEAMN; partner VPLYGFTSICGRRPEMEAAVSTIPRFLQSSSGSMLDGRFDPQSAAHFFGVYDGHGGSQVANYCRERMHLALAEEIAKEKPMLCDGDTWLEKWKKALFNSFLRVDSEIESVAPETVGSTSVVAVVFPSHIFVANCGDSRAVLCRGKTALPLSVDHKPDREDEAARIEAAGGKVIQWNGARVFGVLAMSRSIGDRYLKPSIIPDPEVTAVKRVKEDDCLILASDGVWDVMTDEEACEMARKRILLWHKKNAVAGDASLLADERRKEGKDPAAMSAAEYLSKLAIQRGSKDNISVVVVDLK
| Variant | relative binding score |
| --- | --- |
| N77K | 104% |
| A13Y | 95.2% |
| D65H | 97.5% |
| S117D | -0.356% |
| N77G | 98.3% |
| N114L | 37.9% |
| R74L | -11.4% |
| E125D | 103% |
| P50Q | 24.5% |
| L138I | 106% |
| Q51C | 117% |
| T120W | 19.5% |
| F124I | 107% |
| D144V | 77% |
| K116Y | 66.6% |
| P50I | 40.4% |

Series 4 — technique: protein-binding microarray; molecule type: double-stranded DNA, one strand shown; sample: in vitro; tested at: 940 nM top; setting: 60-bp whole probe; added: salmon DNA 0.4 mg/ml; reference: random background probes; direction: higher = stronger binding; all sequences stand within: GCCTAGCAC … GTCTTGATTCGCTTGACGCTGCTG
Target: Interferon regulatory factor 5, full length, phosphomimetic (IRF5, Homo sapiens, UniProt Q13568-2, residues 1-514, S451D/S453D/S456D/S462D)
| Strand | fitted relative affinity [z-score] |
| --- | --- |
| AACGGTCTCCTTCTCCTGACGTGCTAG | 0.397 |
| CTTTCTTTCCATACTGCAAGGTGCTAG | 1.83 |
| GACGGATTCGACTTTCGGGACGTGCTA | 0.947 |
| TCATATATCATTTAATTACTGTGCTAG | 0.752 |
| GAAGATATCAGTCTCGAGACGTGCTAG | 0.942 |
| TTAGATTTCAGTTTCGAGTAGTGCTAG | 4.85 |
| TGAGGTTTCGGGTTTCGGTTAGTGCTA | 9.2 |
| TTAGGTCTCCTTATCCTGTAGTGCTAG | 0.517 |
| CTTCCTCTTTCACTGGTCCTGTGCTAG | 1.6 |
| TCAATTATATCTGTGTTACTGTGCTAG | 0.937 |
| CTAGAACTGAGACTGGATTAGTGCTAG | -0.128 |
| TCAACTTCTGTTTTTGCACTGTGCTAG | 0.493 |
| TCTTATATACCTGTATATCTGTGCTAG | 0.371 |
| GTCGGACTGGGGACTGGGGACGTGCTA | 0.0363 |
| TCCTATATCTGAACCGCAGAGTGCTAG | 0.454 |
| TTAGGTCTCAGTTTCGATTAGTGCTAG | 7.75 |
| TCAATTTTGTTTTTCATACTGTGCTAG | 0.867 |
| TCATTTTTTTAATTGAAACTGTGCTAG | 0.542 |
| TCACATTTTTTTATCAAACTGTGCTAG | 1.43 |
| TTAGGTTTCCTTCTGCTTTAGTGCTAG | 2.12 |
| GACGGACTGCGTCTCGGGACGTGCTAG | -0.405 |
| ACTCTAATCTCACTCTGTCCGTGCTAG | 1.48 |

Series 5 — technique: protein binding microarray; molecule type: double-stranded DNA, one strand shown; sample: in vitro; tested at: not given; reference: not given; direction: higher = stronger binding
Target: Histone acetyltransferase KAT6A, both winged helices, GST fusion (KAT6A, Homo sapiens, UniProt Q92794, residues 1-181)
Setting: 8-mer, flanks averaged, mean of 2 arrays, mostly near background
Target sequence (chain): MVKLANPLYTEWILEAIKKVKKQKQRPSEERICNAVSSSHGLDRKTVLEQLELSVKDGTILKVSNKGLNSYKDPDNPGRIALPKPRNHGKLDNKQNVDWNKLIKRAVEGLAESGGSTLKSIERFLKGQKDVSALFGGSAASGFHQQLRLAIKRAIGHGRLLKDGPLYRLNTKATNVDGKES
| Strand | E-score |
| --- | --- |
| AATGCTGT | -0.119 |
| GCTTAAAC | 0.11 |
| CGAGCGTC | 0.146 |
| CAGTTGGA | -0.00375 |
| CCGATTGA | 0.0351 |
| GCGTACAA | 0.124 |
| GACCCTGC | -0.0418 |
| ATCTTTCA | -0.0499 |
| AGAGAGGC | -0.284 |
| CCGAACCG | 0.159 |
| CTTCGGTC | 0.0262 |
| GATGAAAC | -0.131 |
| AGTGACGC | 0.158 |
| AACATTCT | -0.131 |
| CGATCATA | 0.0802 |
| AATCTGCT | -0.177 |
| GAGAATAA | -0.129 |
| AGTATGAT | -0.085 |
| AATGCTAT | -0.0139 |
| CACTCTTA | -0.191 |
| CCCTGCGA | -0.0824 |
| GATCCTCC | -0.0462 |
| GCTAAACA | -0.0396 |
| CCTAACAA | -0.139 |

Series 6 — technique: protein-binding microarray; molecule type: double-stranded DNA, one strand shown; sample: in vitro; tested at: 0.8 µM; setting: whole 60-bp probe, no competitor; direction: higher = stronger binding; all sequences stand within: … GTCTTGATTCGCTTGACGCTGCTG
Target: Centromere-binding protein 1, full length, N-terminal tag (CBF1, Saccharomyces cerevisiae, UniProt P17106, residues 1-351)
UniProt P17106, sequence (whole entry, looked up): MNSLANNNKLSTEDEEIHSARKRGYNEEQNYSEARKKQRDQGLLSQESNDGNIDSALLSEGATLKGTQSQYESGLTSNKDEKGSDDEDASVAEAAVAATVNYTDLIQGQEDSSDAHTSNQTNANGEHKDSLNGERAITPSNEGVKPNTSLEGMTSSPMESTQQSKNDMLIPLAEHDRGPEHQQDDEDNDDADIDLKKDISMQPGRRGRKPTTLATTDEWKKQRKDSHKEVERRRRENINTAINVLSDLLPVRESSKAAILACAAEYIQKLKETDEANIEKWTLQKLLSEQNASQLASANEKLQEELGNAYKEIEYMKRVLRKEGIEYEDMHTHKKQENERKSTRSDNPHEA
| Strand | fluorescence intensity [a.u.] |
| --- | --- |
| CTATTACTTGGCAAACACGTTGGTTGGGAAAAGTTC | 621 |
| CTAAAAAAGAGGAATTGCGTGGCGGCGTGGATGTTC | 539 |
| GAATTGTGTGGAACTGACGTGGACCTTTTCTGTTAG | 521 |
| GAAAAACAATAAACGTGGGTGATGAAGACAAGATAG | 652 |
| CTAGAGTTTGGTTGCCACATGTACGCTTAGGACTTC | 629 |
| GAATAAAGGTAATATCATGTGATTAAGAGTGAATAG | 3210 |
| GAAAAGTGGGGTGCTCAGCTGATTTGCATCTTTTAG | 714 |
| CTAAGCAAGAGGTGACACATAAACATAGTTTTCTTC | 504 |
| CTAAATGGCTGTGGTCACATCAGGACCTACGAATTC | 540 |
| CCTAACTACTATAGTATCGTGACATAGCTTCGTACA | 1300 |
| TGTACGAAGCTATGTCACCACGATATAGTAGTTAGG | 549 |
| TGTACGAAGCTATCGTGGGTGACTATAGTAGTTAGG | 508 |
| GAATCACATGATATACGCGTGACTTTTTTTTTATAG | 4860 |
| TGTACGAAGCTATGTGACTACAATATAGTAGTTAGG | 550 |

A few entries again (series 2):
| Variant | normalised enrichment score |
| --- | --- |
| S2A | 1.01 |
| R4A | 0.609 |
| T10A | 1.02 |
| V3A | 0.92 |
| V12A | 0.732 |
| V9A | 0.629 |
| F8L | 0.471 |
